Measured values pooled from the literature.
Protocols differ between the studies behind these lines. ± marks the error that the study gave. Values after ≈ are worked out from the molar mass of the structure shown.

SMILES = CN1CC[C@H](c2c(O)cc(O)c3c(=O)cc(-c4cnccc4Cl)oc23)[C@H](O)C1; tested on = HIV-1; test = viral replication; test system = HeLa-CD4-LTR/β-gal, LAI; endpoint = EC50; result = > 1000 nM
SMILES = CO[C@H]1[C@H](O[C@H]([C@H]2O[C@@H](n3ccc(=O)[nH]c3=O)[C@H](O)[C@@H]2O)[C@H](NCCCNC(=O)[C@@H](NC(=O)[C@@H](NC(=O)N[C@H](C(=O)O)C(C)C)[C@@H]2CCNC(=N)N2)[C@@H](OC(=O)CCCCCCCCCCCCNC(=N)N)C(C)C)C(N)=O)O[C@H](CN)[C@H]1O; tested on = Cryptococcus neoformans; test = alamar blue; endpoint = MIC50; result = > 35 µg/mL
SMILES = C=C(C)c1cccc(C(C)(C)NC(=O)Nc2ccc(Cl)c(N)c2)c1; tested on = Staphylococcus aureus; test system = Smith, RPMI medium; conditions = together with: 1 mM guanosine; endpoint = MIC; result = > 32 µM
SMILES = C/C(=C\C=C\[C@@H](C)[C@H]1CC[C@@]2(C)[C@@H]3CC[C@H]4C(C)(C)[C@@H](O[C@@H]5O[C@H](CO)[C@@H](O[C@@H]6O[C@H](CO)[C@@H](O)[C@H](O)[C@H]6O)[C@H](O)[C@H]5O[C@@H]5O[C@H](CO)[C@@H](O)[C@H](O)[C@H]5O[C@@H]5O[C@@H](C)[C@H](O)[C@@H](O)[C@H]5O)CC[C@@]45C[C@@]35CC[C@]12C)C(=O)N[C@@H]1C(=O)O[C@H](C)[C@@H]1C (single isomer, unassigned); tested on = Trypanosoma brucei brucei; test = Alamar Blue; test system = trypomastigote; endpoint = IC90; result = 3560 nM
SMILES = N#Cc1ccc(S(=O)(=O)NCc2cn(CB(O)O)nn2)cc1; tested on = Klebsiella pneumoniae; test system = blaKPC-2; conditions = 10 µg/mL, together with: cefepime; endpoint = MIC of cefepime; result = 4 µg/mL
SMILES = C=CC(=O)Nc1cc(-n2c(=O)ccc3cnc4ccc(-c5cn[nH]c5)cc4c32)ccc1C; tested on = MOLM-14; test = cell growth; endpoint = GI50; result = ~1000 nM
SMILES = CO[C@H]1[C@H](O[C@H]([C@H]2O[C@@H](n3ccc(=O)[nH]c3=O)[C@H](O)[C@@H]2O)[C@H](NCCCNC(=O)[C@@H](NC(=O)[C@@H](NC(=O)N[C@H](C(=O)O)C(C)C)[C@@H]2CCNC(=N)N2)[C@@H](OC(=O)CCCCCCCCCCCCN(O)C(=N)N)C(C)C)C(N)=O)O[C@H](CN)[C@H]1O; tested on = Mycolicibacterium smegmatis; test = alamar blue; test system = ATCC 607; conditions = nutrient-deficient medium; endpoint = MIC90; result = 0.04 ± 0.005 µg/mL (≈ 0.0329 µM)
SMILES = CC(=O)c1cccc(C(C)(C)NC(=O)Nc2ccc(Cl)c(-c3nc(C(F)(F)F)cs3)c2)c1; tested on = Staphylococcus aureus; test system = Smith, RPMI medium; conditions = together with: no guanosine; endpoint = MIC; result = > 30 µM
SMILES = COc1cc(F)c2c(=O)c3ccc(Oc4ccc(OC(F)(F)F)cc4)cc3[nH]c2c1; tested on = Toxoplasma gondii; test = parasite growth, beta-galactosidase reporter; test system = HFF, RH; conditions = 3 days; endpoint = EC50; result = 0.17 nM
SMILES = NCc1ccc(-c2ncc(OCC3CCNCC3)nc2-c2ccc(-c3ccoc3)cc2)cc1; tested on = Zika virus; test system = U87, FLR; conditions = 5 µM, 48 h; endpoint = infectious virus reduction; result = 99.7%
SMILES = NC[C@@H](NC[C@@H]1CCCN1C[C@@H](CO)NC[C@@H](NCCc1ccc(Cl)c(Cl)c1)c1ccccc1)c1ccccc1; tested on = Klebsiella pneumoniae; test = bacterial growth; conditions = 24 µM, fold shift of IC50, together with: amikacin; endpoint = potentiation of amikacin; result = 1.7 fold
SMILES = C[C@H](CS)C(=O)N[C@@H](Cc1c[nH]c2ccccc12)C(=O)O; tested on = Escherichia coli; test system = IMP-1 producing; conditions = 10 µM, together with: meropenem; endpoint = MIC of meropenem; result = 32 µg/mL
SMILES = NC[C@@H](NC[C@@H]1CCCN1C[C@@H](CO)NC[C@@H](NCCC1CC2CCC1C2)c1ccccc1)c1ccccc1 (stereo partly drawn); tested on = Acinetobacter baumannii; test = bacterial growth; conditions = 8 µM, fold shift of IC50, together with: amikacin; endpoint = potentiation of amikacin; result = 2.4 fold
SMILES = CN1CC[C@H](c2c(O)cc(O)c3c(=O)cc(-c4cccc(Cl)c4)oc23)[C@H](O)C1; tested on = HIV-1; test = viral replication; test system = HeLa-CD4-LTR/β-gal, LAI; endpoint = EC50; result = 30.8 nM
SMILES = COc1cc(CC#Cc2c(C)nc(N)nc2N)cc(OC)c1OC; tested on = Candida glabrata; test = Alamar Blue; endpoint = MIC; result = 20 µg/mL

For quick reference, copied from above:
SMILES = NC[C@@H](NC[C@@H]1CCCN1C[C@@H](CO)NC[C@@H](NCCC1CC2CCC1C2)c1ccccc1)c1ccccc1 (stereo partly drawn); tested on = Acinetobacter baumannii; test = bacterial growth; conditions = 8 µM, fold shift of IC50, together with: amikacin; endpoint = potentiation of amikacin; result = 2.4 fold
SMILES = CN1CC[C@H](c2c(O)cc(O)c3c(=O)cc(-c4cccc(Cl)c4)oc23)[C@H](O)C1; tested on = HIV-1; test = viral replication; test system = HeLa-CD4-LTR/β-gal, LAI; endpoint = EC50; result = 30.8 nM
